Published values of several laboratories.
± gives the spread as reported.

With COc1ccc2c3c(c4cc(OC)c(OC)cc4c2c1)CN1CCCCC1C3 (stereo not drawn) the CC50 was 41.9 ± 6.92 µM (swine cells; 24 (unit not given)).
The peripheral volume of O=C(CN1CCN(c2cc3c(cc2F)c(=O)c(C(=O)O)cn3C2CC2)CC1)Nc1ccc(Cl)cc1 is reported as 0.243 mL (female BALB/c mice; intravenous, 3.75 mg/kg).
Under “subjects with severe TEAE”, CC[C@H](C)C(=O)N1CCC(NC(=O)Nc2ccc(OC(F)(F)F)c(F)c2)CC1 is recorded as 0% (healthy volunteers; oral, 0.5 mg single dose, 14 (unit not given)).
For CC(C)[C@H](NC(=O)CNC(=O)[C@H](CCC(N)=O)NC(=O)[C@H](C)N)C(=O)O, “subjects with Probably related AE” read 0% (healthy male volunteers; intravenous, 90 mg/kg/h, 2 h, added: LPS 2 ng/kg).
With CC[C@H](C)[C@H](NC(=O)[C@H](CCCN)NC(=O)[C@H](CC(N)=O)NC(=O)[C@H](Cc1c[nH]c2ccccc12)NC(=O)[C@H](Cc1ccccc1)NC(=O)[C@H](CCCN)NC(=O)[C@H](CCCCNC(=N)N)NC(=O)[C@H](CC(C)C)NC(=O)[C@H](Cc1c[nH]c2ccccc12)NC(=O)[C@H](CCCN)NC(=O)[C@H](CCCCNC(=N)N)NC(=O)[C@H](CC(C)C)NC(=O)CNC(C)=O)C(=O)N[C@@H](CCCN)C(=O)N[C@@H](CCCCNC(=N)N)C(N)=O the survival was 33% (Kunming mice; intravenous, 20 mg/kg, 5 days).
For CCCCCCCCCCCCC(=O)O.O=C1CCCC2C3CCCN4CCCC(CN12)C34 (stereo not drawn), “standard entropy of micellization” read 83 J/(mol·K) (electrical conductivity; water; 293.15 K, critical micelle concentration).
The AUC(0-inf) of CC(C)C[C@H](NC(=O)[C@H](CCCCN)NC(=O)[C@H](CCC(=O)O)NC(=O)[C@H](C)NC(=O)[C@@H](NC(=O)[C@H](CCCCN)NC(=O)[C@H](CC(=O)O)NC(=O)[C@H](Cc1ccc(O)cc1)NC(=O)[C@H](Cc1ccccc1)NC(=O)[C@H](C)NC(=O)[C@H](CCCCN)NC(=O)[C@H](CC(C)C)NC(=O)[C@H](Cc1c[nH]c2ccccc12)NC(=O)[C@@H](N)CC(=O)O)C(C)C)C(=O)N[C@@H](CCCCN)C(=O)N[C@@H](CCC(=O)O)C(=O)N[C@@H](C)C(=O)N[C@@H](Cc1ccccc1)C(=O)N1CCC[C@H]1C(=O)N[C@@H](CC(=O)O)C(=O)N[C@@H](Cc1c[nH]c2ccccc12)C(=O)N[C@@H](C)C(=O)N[C@@H](CCCCN)C(=O)N[C@@H](C)C(=O)N[C@@H](C)C(=O)N[C@@H](Cc1ccc(O)cc1)C(=O)N[C@@H](CC(=O)O)C(=O)N[C@@H](CCCCN)C(=O)N[C@@H](C)C(=O)N[C@@H](C)C(=O)N[C@@H](CCC(=O)O)C(=O)N[C@@H](CCCCN)C(=O)N[C@@H](C)C(=O)N[C@@H](CCCCN)C(=O)N[C@@H](CCC(=O)O)C(=O)N[C@@H](C)C(=O)N[C@@H](C)C(=O)O is reported as 8510 µg·h/mL (cynomolgus monkey male, plasma; intravenous infusion, 75 mg/kg, day 1, 30 min infusion).
COc1ccc(C)cc1NC(=O)OC1CC2CCCC(C1)N2Cc1ccc(CC[18F])cc1 (stereo not drawn) has a tissue uptake of 5.82 ± 0.33 %ID/g (BALB/c mice, EMT6 tumour, kidney; 2 h).
The survival of Cc1ccccc1CN1CCC(O)(c2ccc(Cl)c(C(F)(F)F)c2)CC1 is reported as 67% (BALB/c mouse; intraperitoneal, 100 mg/kg, 96 h).
For CCOP(=O)(OCC)OCCCCOC(=O)CC1=C(C)/C(=C/c2ccc([S+](C)[O-])cc2)c2ccc(F)cc21 (stereo not drawn), the Cmax was 2 nmol/g (rat, blood; oral, 50 mg/kg, single).
For CC[C@H](C)[C@H](NC(=O)CNC(=O)[C@H](Cc1ccccc1)NC(=O)[C@H](CCCCN)NC(=O)[C@H](CCCCN)NC(=O)[C@H](CCCNC(=N)N)NC(=O)[C@H](CCCNC(=N)N)NC(=O)[C@H](CCCNC(=N)N)NC(=O)[C@H](CCC(N)=O)NC(=O)[C@H](CCCNC(=N)N)NC(=O)[C@H](CCCNC(=N)N)NC(=O)[C@H](CCCCN)NC(=O)[C@H](CCCCN)NC(=O)[C@H](CCCNC(=N)N)NC(=O)CNC(=O)[C@@H](N)Cc1ccc(O)cc1)C(=O)N[C@H](C(=O)N[C@@H](CC(N)=O)C(=O)N[C@@H](CO)C(=O)N[C@@H](CCC(N)=O)C(=O)N[C@@H](CC(C)C)C(=O)N[C@@H](CCCCN)C(=O)N1CCC[C@H]1C(=O)O)[C@@H](C)O, “partition coefficient Kp” read 4970 ± 1440 (derivative UV-vis spectrophotometry; DMPC:Chol:SM large unilamellar vesicles vs PBS; 30 min, pH 7.4, 37 °C, lipid ratio 75:15:10).
CCN(CC)c1ccc2c(-c3ccccc3C(=O)OCCC[18F])c3ccc(=[N+](CC)CC)cc-3oc2c1 has a tracer uptake of 0.65 %ID/g (rat, bone; 1 h).
The haematocrit of CC(C)[C@@H]1NC(=O)[C@H](Cc2ccccc2)NC(=O)[C@H](Cc2ccc(O)cc2)NC(=O)CCSSC[C@@H](C(=O)N2CCC[C@H]2C(=O)N[C@H](CCCNC(=N)N)C(=O)NCC(N)=O)NC(=O)[C@H](CCC(N)=O)NC1=O is reported as 41 ± 2.2% (Wistar rat, blood; intravenous, 10 µg/kg single dose, 72 h).
For CSCC[C@H](NC(=O)CNC(=O)[C@H](CC(=O)O)NC(=O)[C@@H](NC(=O)[C@@H](NC(=O)[C@@H](NC(=O)CNC(=O)[C@H](CCC(=O)O)NC(=O)[C@H](CCSC)NC(=O)[C@H](CC(=O)O)NC(=O)[C@H](C)NC(=O)[C@H](C)NC(=O)[C@@H](NC(=O)[C@H](CO)NC(=O)[C@@H](N)CC(C)C)[C@@H](C)O)C(C)C)C(C)C)[C@@H](C)O)C(=O)N[C@@H](C)C(=O)N[C@@H](CO)C(=O)NCC(=O)N[C@@H](CC(C)C)C(=O)N[C@@H](CC(=O)O)C(=O)N[C@@H](CCCCN)C(=O)N[C@@H](CC(=O)O)C(=O)N[C@@H](Cc1ccc(O)cc1)C(=O)N[C@@H](CC(C)C)C(=O)N[C@@H](CCCCN)C(=O)N1CCC[C@H]1C(=O)N[C@@H](CC(=O)O)C(=O)N[C@@H](CC(=O)O)C(=O)O, the Vd was 4.08 L/kg (male CD-1 mouse, serum; intravenous, 480 mg/kg).
With [11CH3]n1c(=O)n(CCCO)c(=O)c2c1nc(Oc1cccc(OC(F)(F)F)c1)n2Cc1ccc(Cl)cc1 the tracer uptake was 0.37 ± 0.01 %ID/g (ex vivo biodistribution; Sprague Dawley rat, brain; 30 min post injection).
With N=C(N)NCCC[C@@H]1NC(=O)[C@H](CCCNC(=N)N)NC(=O)[C@H](CCCNC(=N)N)NC(=O)[C@H](CCCNC(=N)N)NC(=O)[C@H](Cc2c[nH]c3ccccc23)NC(=O)[C@H](CCCNC(=N)N)NC(=O)[C@H](CCCNC(=N)N)NC(=O)[C@@H](N)CSSC[C@@H](C(N)=O)NC1=O the hatching rate was ~75% (zebrafish embryos; 50 µg/mL, 48 h).
CN(C)C(CNC(=O)Nc1cc(C(F)(F)F)ccc1N1CCOCC1)c1ccncc1 (stereo not drawn) has a phosphorus of 8 mg/dL (mouse, serum; intraperitoneal, 180 mg/kg single dose).
CCCCCCCC(=O)NCCCC[C@H](NC(=O)[C@H](Cc1ccccc1)NC(=O)[C@@H](CCCNC(=N)N)NC(=O)[C@@H](N)Cc1ccc(O)cc1)C(N)=O has a tissue concentration of 199 ± 8 ng/g (CD-1 mouse, male, brain; intravenous, 3 mg/kg, 180 min).
[11CH3]Sc1ccc(C(=O)C2CCN(C3Cc4ccccc4CC3O)CC2)cc1 (single isomer, unassigned; (-)): “decrease from peak uptake” 54% (PET imaging; cynomolgus monkey, striatum; 120 min).
Under “probably related adverse events”, CC(C)[C@H](NC(=O)CNC(=O)[C@H](CCC(N)=O)NC(=O)[C@H](C)N)C(=O)O is recorded as 0% (human; single dose, 3 mg/kg).
With C/C(=N\OCCCN1CCCCC1)c1ccc(C(F)(F)F)cc1 the Vd was 42.2 L/kg (mouse, plasma; intravenous, 5 mg/kg).

Some of these lines once more:
For CSCC[C@H](NC(=O)CNC(=O)[C@H](CC(=O)O)NC(=O)[C@@H](NC(=O)[C@@H](NC(=O)[C@@H](NC(=O)CNC(=O)[C@H](CCC(=O)O)NC(=O)[C@H](CCSC)NC(=O)[C@H](CC(=O)O)NC(=O)[C@H](C)NC(=O)[C@H](C)NC(=O)[C@@H](NC(=O)[C@H](CO)NC(=O)[C@@H](N)CC(C)C)[C@@H](C)O)C(C)C)C(C)C)[C@@H](C)O)C(=O)N[C@@H](C)C(=O)N[C@@H](CO)C(=O)NCC(=O)N[C@@H](CC(C)C)C(=O)N[C@@H](CC(=O)O)C(=O)N[C@@H](CCCCN)C(=O)N[C@@H](CC(=O)O)C(=O)N[C@@H](Cc1ccc(O)cc1)C(=O)N[C@@H](CC(C)C)C(=O)N[C@@H](CCCCN)C(=O)N1CCC[C@H]1C(=O)N[C@@H](CC(=O)O)C(=O)N[C@@H](CC(=O)O)C(=O)O, the Vd was 4.08 L/kg (male CD-1 mouse, serum; intravenous, 480 mg/kg).
With [11CH3]n1c(=O)n(CCCO)c(=O)c2c1nc(Oc1cccc(OC(F)(F)F)c1)n2Cc1ccc(Cl)cc1 the tracer uptake was 0.37 ± 0.01 %ID/g (ex vivo biodistribution; Sprague Dawley rat, brain; 30 min post injection).
